Results gathered from unrelated publications.
Every numbered part comes from another study and shows a few of its results, in no order. Changes are numbered by the printed parent chain.

Series 1 — target: CCNE1, cyclin fold, Cln2 fusion (human); method: yeast growth competition, sequencing; matrix: yeast; notes: strong parent motif; reference: not given; direction: higher = stronger binding
Starting sequence: INSM1 docking peptide (human); PKAIRKLHFEDEV
Under “normalised enrichment score”, `PAAIRKLHFEDEV [K2A]` is recorded as 3.84.
For `PKLIRKLHFEDEV [A3L]`, “normalised enrichment score” read 0.661.
For `PKAIRKLHSEDEV [F9S]`, “normalised enrichment score” read 0.0519.
For `PKAIRKLHFEAEV [D11A]`, “normalised enrichment score” read 2.85.
Under “normalised enrichment score”, `PKAIRKLHFWDEV [E10W]` is recorded as 1.34.
`PKAIRKLHNEDEV [F9N]`: “normalised enrichment score” 0.0393.
Under “normalised enrichment score”, `PKAIRKLHFSDEV [E10S]` is recorded as 3.35.
`PKAIRKLHFLDEV [E10L]` — result for “normalised enrichment score”: 2.12.
For `PMAIRKLHFEDEV [K2M]`, “normalised enrichment score” read 3.69.
`PKAIRKLHAEDEV [F9A]`: “normalised enrichment score” -0.622.
For `PKAIRKLHFQDEV [E10Q]`, “normalised enrichment score” read 3.03.
For `PIAIRKLHFEDEV [K2I]`, “normalised enrichment score” read 2.91.
For `PKAIRKLHFEFEV [D11F]`, “normalised enrichment score” read 4.26.

Series 2 — method: competition protein-binding microarray; molecule type: double-stranded DNA, one strand shown; matrix: in vitro; concentration: 2 µM; with: Pho4 competitor, 0.05 µM; direction: higher = stronger binding
Target: Centromere-binding protein 1, full length, His-tagged (CBF1, Saccharomyces cerevisiae, UniProt P17106, residues 1-351)
Chain of UniProt P17106 (whole entry, looked up): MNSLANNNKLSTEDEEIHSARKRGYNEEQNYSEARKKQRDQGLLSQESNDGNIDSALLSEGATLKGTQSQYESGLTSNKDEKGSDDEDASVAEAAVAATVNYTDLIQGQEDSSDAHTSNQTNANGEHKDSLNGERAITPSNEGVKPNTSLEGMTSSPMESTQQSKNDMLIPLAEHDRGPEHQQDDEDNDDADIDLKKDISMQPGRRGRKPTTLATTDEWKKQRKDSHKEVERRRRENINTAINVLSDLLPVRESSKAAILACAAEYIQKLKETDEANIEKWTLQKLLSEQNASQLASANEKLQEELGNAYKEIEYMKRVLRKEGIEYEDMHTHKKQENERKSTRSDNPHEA
Notes: whole 60-bp probe, lowest competitor level
For `AAAGCGGTAATTTGGACAGTGGGTGCAGATATCTATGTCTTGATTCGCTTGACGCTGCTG`, the fluorescence intensity was 74.8 a.u.
The fluorescence intensity of `AAAAGTTTGTAGCCACTCGTGAAGTTCTCTGTATGTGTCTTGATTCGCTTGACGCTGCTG` is reported as 99 a.u.
`CGTCCTAGTGATTCCCACGTGTTTTCCATGAGGAAGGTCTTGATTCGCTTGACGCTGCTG` gave a fluorescence intensity of 870 a.u.
`GTCTTGTCTCATTGTCACCATACTTTCCCCACTTCAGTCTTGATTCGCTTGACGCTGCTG` gave a fluorescence intensity of 108 a.u.
The fluorescence intensity of `CTTCTGTAAATTTGGCTAGTGGGTGGACGCGCCCCGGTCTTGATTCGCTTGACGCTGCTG` is reported as 73.4 a.u.
`CGGGGTTAAGTTTGAGGGGTGGGTGGCTTGCAGCAGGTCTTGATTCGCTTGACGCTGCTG` gave a fluorescence intensity of 77.3 a.u.
The fluorescence intensity of `AGCGTAATCTATACCCACGTAAACCCATTGAGATAAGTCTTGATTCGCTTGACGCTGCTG` is reported as 65.6 a.u.
`TCCTGAAGGTGTTTGCACGTGTGGACGGCTAGAGAAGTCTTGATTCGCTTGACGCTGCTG` gave a fluorescence intensity of 826 a.u.
`TGCGCAACAACTTGCCCGGTGGGTGTATGTCTAGAAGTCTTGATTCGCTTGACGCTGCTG` gave a fluorescence intensity of 63.4 a.u.
`AAATTACTAAGTTGACACGTGGGTGACGCCGTATGAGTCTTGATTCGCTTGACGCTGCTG` gave a fluorescence intensity of 1150 a.u.

Series 3 — method: protein binding microarray; molecule type: double-stranded DNA, one strand shown; matrix: in vitro; concentration: not given; reference: not given; direction: higher = stronger binding
Target: Histone acetyltransferase KAT6A, both winged helices, GST fusion (KAT6A, Homo sapiens, UniProt Q92794, residues 1-181)
Notes: 8-mer, flanks averaged, mean of 2 arrays, mostly near background
Target sequence (chain): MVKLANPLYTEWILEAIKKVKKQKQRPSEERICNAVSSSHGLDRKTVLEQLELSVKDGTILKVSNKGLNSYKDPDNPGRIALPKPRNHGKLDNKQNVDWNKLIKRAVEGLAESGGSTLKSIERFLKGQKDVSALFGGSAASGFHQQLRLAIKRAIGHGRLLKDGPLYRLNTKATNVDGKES
With `CTATAATC` the E-score was -0.193.
With `AACGTTCG` the E-score was 0.0704.
`GAACTAGA` gave an E-score of -0.0203.
With `CAGGTGTA` the E-score was -0.0971.
With `TCAGCCCA` the E-score was -0.116.
For `CAGTAAGA`, the E-score was -0.0678.
`ACAGACCT` gave an E-score of 0.0326.
For `GGCGTAAC`, the E-score was 0.0926.
`ACCTACGA` has an E-score of -0.228.
For `CATTGGTC`, the E-score was -0.165.
For `CGAATCTC`, the E-score was 0.0982.

Series 4 — method: RNA Bind-n-Seq; molecule type: RNA; matrix: in vitro; concentration: not given; reference: input RNA pool; direction: higher = stronger binding
Target: RING finger protein unkempt homolog, zinc fingers 1-6, GST-SBP tag (UNK, Homo sapiens, UniProt Q9C0B0, residues 30-357)
Chain of UniProt Q9C0B0 (30-357, looked up): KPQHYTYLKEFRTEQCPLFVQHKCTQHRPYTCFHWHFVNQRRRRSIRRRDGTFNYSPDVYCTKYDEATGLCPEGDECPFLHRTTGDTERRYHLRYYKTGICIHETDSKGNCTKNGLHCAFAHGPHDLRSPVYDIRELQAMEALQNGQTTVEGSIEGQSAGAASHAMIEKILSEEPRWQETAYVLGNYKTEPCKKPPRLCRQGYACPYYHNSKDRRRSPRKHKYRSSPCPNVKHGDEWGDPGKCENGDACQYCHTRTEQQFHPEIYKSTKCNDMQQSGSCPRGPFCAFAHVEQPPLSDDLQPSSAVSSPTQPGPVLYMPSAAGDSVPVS
Notes: RNA with constant flanks, human and mouse sites, ends assumed
With `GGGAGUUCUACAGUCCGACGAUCCAAUGCGUAUGAGUCUUUGACAUCAUGAUGUACAUCCGGCAAAGAAAAGAGACAAAACCCAUAGAAGUUUCUGAGGAUUUUCCAUCACCAAAAGAAGAUGUGAAGUUGGAAAAGAAAUUGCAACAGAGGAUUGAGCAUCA` the bound/input enrichment was 0.347 ratio.
For `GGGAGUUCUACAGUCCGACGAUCCCUGCUCCCAAAUCAUGGGCCAGUAACAAGCAAGGUGGGCAAGGAGAUGGAAUCCAAGUGAAUAGUCAGUUUCAGCAAGAAUUUCCCAGCCUGCAGGCAGCUGGGGAUCAGGAAAAAAAACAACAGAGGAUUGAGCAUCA`, the bound/input enrichment was 0.323 ratio.
With `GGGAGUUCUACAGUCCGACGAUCUACACAAAAAGUUGUGUCAUAACUUACCCAGAUAUGUUUUUCUAUCAUUUGAAACCUUUUUAGCUACUGUUUGUUUUCAUUCAACUAACAAACAUAUUCCAAUAAUAAAAGCAGUAUAUACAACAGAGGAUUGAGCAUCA` the bound/input enrichment was 4.4 ratio.
For `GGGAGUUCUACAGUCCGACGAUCUCUAACAUUAGCCUUGUCUUUGAUUUUAUGGAAACUGACCUCGAGGUUAUUAUAAAGGAUAACAGCCUUGUGCUGACACCAUCCCACAUUAAAGCCUACAUGUUGAUGACUCUUCAGGGCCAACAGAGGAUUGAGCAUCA`, the bound/input enrichment was 0.266 ratio.
`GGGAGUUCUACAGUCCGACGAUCGAAAUUGUUGAAUUUUUGUUGCAACUUGGAGUGCCAGUGAAUGAUAAAGACGAUGCAGGUUGGUCUCCUCUUCAUAUUGCGGCUUCUGCUGGCCGGGAUGAGAUUGUAAAAGCCCUUCUGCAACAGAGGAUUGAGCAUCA` has a bound/input enrichment of 0.235 ratio.
With `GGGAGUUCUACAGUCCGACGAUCAAUUCUUGUAAUAUGUUGAUUCAGUGUUUUGUAAAUGAAGUCGUAUGUAUUUUCAGAGUAUUUUUGUAUGUACUGUAAGAUACCAUCUUUUCAAAGAGAAACGUUUAAAACCUUUAUUGUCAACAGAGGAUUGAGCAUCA` the bound/input enrichment was 0.136 ratio.
With `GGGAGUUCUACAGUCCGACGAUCUUGCUUUGCUGGUUUCAUAUUUAUUUGUUGUAUUUAAAAAAUACAUUGUUGUAAGAGUGAUUUUUUCAAUAUAUUUUAUUCCUGGGGGGGAUCAUGCUACACUCUCAAAAGAAAAUUAAGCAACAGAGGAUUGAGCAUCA` the bound/input enrichment was 0.813 ratio.

Series 5 — method: RNAcompete; molecule type: RNA; matrix: in vitro; concentration: 20 nM; notes: 7-mer, probes averaged, single round; reference: mean of 7-mers; direction: higher = stronger binding
Target: PABPC1L2, full length, GST fusion (mouse, UniProt A0ABA7IW68)
Target sequence (chain): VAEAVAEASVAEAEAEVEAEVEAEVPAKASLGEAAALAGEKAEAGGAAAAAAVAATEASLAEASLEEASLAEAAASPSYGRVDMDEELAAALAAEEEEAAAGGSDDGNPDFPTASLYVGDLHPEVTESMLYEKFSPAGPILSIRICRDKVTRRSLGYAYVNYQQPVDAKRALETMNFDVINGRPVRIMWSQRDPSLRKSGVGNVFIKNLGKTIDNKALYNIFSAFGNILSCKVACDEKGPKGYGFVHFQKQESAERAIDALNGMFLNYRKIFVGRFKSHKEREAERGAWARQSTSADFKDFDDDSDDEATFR
The 7-mer Z-score of `GGAAAGA` is reported as 0.436.
The 7-mer Z-score of `UGUUCAA` is reported as -0.208.
`GGCAUGA` has a 7-mer Z-score of 0.0587.
The 7-mer Z-score of `AACUGGG` is reported as 0.414.
The 7-mer Z-score of `AGGAGUC` is reported as -0.258.
The 7-mer Z-score of `ACGGUGU` is reported as -0.128.
With `UUAGCAC` the 7-mer Z-score was -0.287.
`AGACCUU` gave a 7-mer Z-score of -0.311.
For `CGGUCAC`, the 7-mer Z-score was -0.171.
The 7-mer Z-score of `GUAAUGA` is reported as -0.101.

Series 6 — method: RNA Bind-n-Seq; molecule type: RNA; matrix: in vitro; concentration: 365 nM; reference: no-protein control; direction: higher = stronger binding
Target: RNA binding protein fox-1 homolog 2, RRM domain, GST-SBP tag (RBFOX2, Homo sapiens, UniProt O43251-10, residues 100-194)
Notes: natural RNA segment, single round, ends assumed
Residues (chain): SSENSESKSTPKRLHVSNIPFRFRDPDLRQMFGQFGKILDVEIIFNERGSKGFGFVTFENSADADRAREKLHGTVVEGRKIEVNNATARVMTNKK
Under “RBNS enrichment (R)”, `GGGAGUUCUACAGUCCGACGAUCGCACCACCACUGUGGAUUGCACGCCUUUCUGGGUGGCUGCAGUCUCUGUCCCUUGUGAAAGCAUGGCAGCUUCAGGCCCAUCUGCGGGCAUGUGGCUGUUUUUCCUGGGAUGGAAUUCUCGGGUGCCAA` is recorded as 16.6.
`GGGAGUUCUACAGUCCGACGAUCUAAUUAAUGCCCCUCUCUUACAGAACACUCCUAUUUGUACCUCAACAAAUGCAAAUUUUCCCCGUUUGCCCUACGCCCCUUUUGGUACACCUAGAGGUUGAUUUCCUUUUUGGAAUUCUCGGGUGCCAA`: “RBNS enrichment (R)” 0.887.
`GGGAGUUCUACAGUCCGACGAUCCUGUCAAAUCUGUCAUUGCAUAUGCCAUCGUUUUCUAGCAAAAUCCCAUGAUUGGCUAUAAACGUUUUGUAAGAAGUCACUCUCCUUGAAAAUACUGAACAUAGCUGUAUUGGAAUUCUCGGGUGCCAA` — result for “RBNS enrichment (R)”: 0.237.
`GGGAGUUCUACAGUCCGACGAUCGUGUAUGGUCUCCUUCUCCCGAAAGUGUACUUAAUCUUUGCUUUCUUUGCACAAUGUCUUUGGUUGCAAGUCAUAAGCCUGAGGCAAAUAAAAUUCCAGUAAUUUCCAAGUGGAAUUCUCGGGUGCCAA`: “RBNS enrichment (R)” 3.6.
`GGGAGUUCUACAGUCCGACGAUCCAGGAAGCUUACACAUUUUCUCAGAGGCCUUUGUGCUCCCACCUCUUCUACCCUCCCCCUCUUCUUUCCCAUUUUAAAAAAGAAAAGAAGGAAAAAGAAAAAAGGGGCAAUGGAAUUCUCGGGUGCCAA`: “RBNS enrichment (R)” 0.235.
For `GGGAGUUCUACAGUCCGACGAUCGAGGCAAUGUGAAAGAGGGAGUAUUACUUUUAUGUACAAAGUUAUUUAUUUAUAGAAAUUUUGGUACAGUGUACAUUGAAAACCAUGUAAAAUAUUGAAGUGUCUAACAAUGGAAUUCUCGGGUGCCAA`, “RBNS enrichment (R)” read 0.741.

Series 7 — method: protein-binding microarray; molecule type: double-stranded DNA, one strand shown; matrix: in vitro; concentration: not given; direction: higher = stronger binding
Target: Hepatocyte nuclear factor 3-beta, forkhead domain (FOXA2, Homo sapiens, UniProt Q9Y261, residues 142-269)
Notes: k-mer, scored over probes, only values ≥0.25
Target sequence (chain): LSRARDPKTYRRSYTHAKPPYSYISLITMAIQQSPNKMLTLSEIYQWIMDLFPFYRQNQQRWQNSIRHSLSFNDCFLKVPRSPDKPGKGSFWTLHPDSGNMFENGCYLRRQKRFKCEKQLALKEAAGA
With `AACTGTGT` the E-score was 0.259.
The E-score of `GGAAATAA` is reported as 0.265.
`GCCCCTCC` has an E-score of 0.276.
With `TACGTACA` the E-score was 0.258.
With `GTATGTTA` the E-score was 0.316.
`CGTATTTA` has an E-score of 0.278.
`AGTGTATA` gave an E-score of 0.373.
With `GTCTGTTA` the E-score was 0.346.
For `CGTTACAA`, the E-score was 0.268.
For `CAAACACG`, the E-score was 0.268.

Excerpt of the above (series 2):
For `AAAGCGGTAATTTGGACAGTGGGTGCAGATATCTATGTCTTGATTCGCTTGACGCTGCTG`, the fluorescence intensity was 74.8 a.u.
The fluorescence intensity of `AAAAGTTTGTAGCCACTCGTGAAGTTCTCTGTATGTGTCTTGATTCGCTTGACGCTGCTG` is reported as 99 a.u.
`CGTCCTAGTGATTCCCACGTGTTTTCCATGAGGAAGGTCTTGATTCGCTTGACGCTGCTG` gave a fluorescence intensity of 870 a.u.
`GTCTTGTCTCATTGTCACCATACTTTCCCCACTTCAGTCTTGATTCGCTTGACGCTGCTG` gave a fluorescence intensity of 108 a.u.
The fluorescence intensity of `CTTCTGTAAATTTGGCTAGTGGGTGGACGCGCCCCGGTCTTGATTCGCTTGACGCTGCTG` is reported as 73.4 a.u.
`CGGGGTTAAGTTTGAGGGGTGGGTGGCTTGCAGCAGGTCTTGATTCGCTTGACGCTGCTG` gave a fluorescence intensity of 77.3 a.u.
The fluorescence intensity of `AGCGTAATCTATACCCACGTAAACCCATTGAGATAAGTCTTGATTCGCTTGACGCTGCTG` is reported as 65.6 a.u.
